# Experimental data from different studies.
# A part holds a random share of what one study measured. Several values in a cell are separate wells, animals, samples, runs or records.
# Chain of UniProt O43353 (whole entry, looked up): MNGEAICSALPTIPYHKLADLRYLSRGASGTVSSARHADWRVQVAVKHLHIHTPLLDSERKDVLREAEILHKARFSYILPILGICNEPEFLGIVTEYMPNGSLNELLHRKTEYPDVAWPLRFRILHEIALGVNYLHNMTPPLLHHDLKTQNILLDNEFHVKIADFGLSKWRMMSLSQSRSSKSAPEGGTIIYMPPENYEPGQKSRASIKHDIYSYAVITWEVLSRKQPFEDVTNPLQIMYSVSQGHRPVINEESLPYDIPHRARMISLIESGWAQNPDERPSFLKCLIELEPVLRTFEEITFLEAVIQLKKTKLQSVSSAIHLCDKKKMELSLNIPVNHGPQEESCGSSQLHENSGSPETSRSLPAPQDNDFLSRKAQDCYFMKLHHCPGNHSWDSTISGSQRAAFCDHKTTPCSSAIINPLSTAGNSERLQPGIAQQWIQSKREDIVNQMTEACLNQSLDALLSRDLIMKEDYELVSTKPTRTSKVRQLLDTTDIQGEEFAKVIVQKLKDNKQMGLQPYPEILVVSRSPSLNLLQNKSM
# Chain of UniProt P0C1S8 (whole entry, looked up): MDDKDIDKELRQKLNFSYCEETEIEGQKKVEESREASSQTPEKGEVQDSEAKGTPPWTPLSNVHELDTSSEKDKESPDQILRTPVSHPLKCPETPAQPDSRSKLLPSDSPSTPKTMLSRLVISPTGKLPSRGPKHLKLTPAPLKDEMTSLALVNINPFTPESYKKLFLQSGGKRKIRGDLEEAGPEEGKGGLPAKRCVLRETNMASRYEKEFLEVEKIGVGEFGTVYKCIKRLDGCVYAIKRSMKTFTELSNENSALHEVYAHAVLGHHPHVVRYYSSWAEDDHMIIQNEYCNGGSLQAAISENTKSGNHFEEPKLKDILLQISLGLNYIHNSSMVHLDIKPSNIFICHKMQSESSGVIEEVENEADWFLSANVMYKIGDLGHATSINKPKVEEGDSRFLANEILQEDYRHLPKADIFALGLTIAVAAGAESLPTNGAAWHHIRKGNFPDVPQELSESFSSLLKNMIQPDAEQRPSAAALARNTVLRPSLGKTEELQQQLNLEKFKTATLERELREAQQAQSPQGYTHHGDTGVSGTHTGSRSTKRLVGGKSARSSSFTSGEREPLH
# Chain of UniProt Q9UEE5 (whole entry, looked up): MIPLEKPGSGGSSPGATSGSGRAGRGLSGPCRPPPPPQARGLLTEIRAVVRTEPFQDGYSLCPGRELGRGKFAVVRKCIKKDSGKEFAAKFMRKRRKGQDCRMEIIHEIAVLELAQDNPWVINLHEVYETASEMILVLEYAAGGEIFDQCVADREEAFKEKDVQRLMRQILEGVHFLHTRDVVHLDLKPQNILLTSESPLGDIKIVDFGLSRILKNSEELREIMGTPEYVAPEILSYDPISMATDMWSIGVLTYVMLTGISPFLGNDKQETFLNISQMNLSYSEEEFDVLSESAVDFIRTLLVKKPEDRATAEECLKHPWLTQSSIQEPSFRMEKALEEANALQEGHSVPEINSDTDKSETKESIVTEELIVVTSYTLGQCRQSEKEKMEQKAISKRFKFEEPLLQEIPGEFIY

# Study 1
# Structure (SMILES): C[C@@H]1CN(c2ccc(-c3cc(C(=O)NCCOCCOCCOCCOCCNC(=O)/C=C/c4[nH]cc(C(=O)N[C@@H](CC(N)=O)c5ccc(F)c(Cl)c5)c4-c4ccc(Cl)cc4F)ccc3F)cc2NC(=O)c2c[nH]c(=O)cc2C(F)(F)F)C[C@H](C)N1C
# Read-out: thermal unfolding
# Method: differential scanning fluorimetry
# Tested at: 5.5 µM
# Reading: higher = more unfolded
# WDR5: WD repeat-containing protein 5 (WDR5, Homo sapiens, UniProt P61964)
# DCAF1: DDB1- and CUL4-associated factor 1 (DCAF1, Homo sapiens, UniProt Q9Y4B6)
# Chain of UniProt Q9Y4B6 (whole entry, looked up): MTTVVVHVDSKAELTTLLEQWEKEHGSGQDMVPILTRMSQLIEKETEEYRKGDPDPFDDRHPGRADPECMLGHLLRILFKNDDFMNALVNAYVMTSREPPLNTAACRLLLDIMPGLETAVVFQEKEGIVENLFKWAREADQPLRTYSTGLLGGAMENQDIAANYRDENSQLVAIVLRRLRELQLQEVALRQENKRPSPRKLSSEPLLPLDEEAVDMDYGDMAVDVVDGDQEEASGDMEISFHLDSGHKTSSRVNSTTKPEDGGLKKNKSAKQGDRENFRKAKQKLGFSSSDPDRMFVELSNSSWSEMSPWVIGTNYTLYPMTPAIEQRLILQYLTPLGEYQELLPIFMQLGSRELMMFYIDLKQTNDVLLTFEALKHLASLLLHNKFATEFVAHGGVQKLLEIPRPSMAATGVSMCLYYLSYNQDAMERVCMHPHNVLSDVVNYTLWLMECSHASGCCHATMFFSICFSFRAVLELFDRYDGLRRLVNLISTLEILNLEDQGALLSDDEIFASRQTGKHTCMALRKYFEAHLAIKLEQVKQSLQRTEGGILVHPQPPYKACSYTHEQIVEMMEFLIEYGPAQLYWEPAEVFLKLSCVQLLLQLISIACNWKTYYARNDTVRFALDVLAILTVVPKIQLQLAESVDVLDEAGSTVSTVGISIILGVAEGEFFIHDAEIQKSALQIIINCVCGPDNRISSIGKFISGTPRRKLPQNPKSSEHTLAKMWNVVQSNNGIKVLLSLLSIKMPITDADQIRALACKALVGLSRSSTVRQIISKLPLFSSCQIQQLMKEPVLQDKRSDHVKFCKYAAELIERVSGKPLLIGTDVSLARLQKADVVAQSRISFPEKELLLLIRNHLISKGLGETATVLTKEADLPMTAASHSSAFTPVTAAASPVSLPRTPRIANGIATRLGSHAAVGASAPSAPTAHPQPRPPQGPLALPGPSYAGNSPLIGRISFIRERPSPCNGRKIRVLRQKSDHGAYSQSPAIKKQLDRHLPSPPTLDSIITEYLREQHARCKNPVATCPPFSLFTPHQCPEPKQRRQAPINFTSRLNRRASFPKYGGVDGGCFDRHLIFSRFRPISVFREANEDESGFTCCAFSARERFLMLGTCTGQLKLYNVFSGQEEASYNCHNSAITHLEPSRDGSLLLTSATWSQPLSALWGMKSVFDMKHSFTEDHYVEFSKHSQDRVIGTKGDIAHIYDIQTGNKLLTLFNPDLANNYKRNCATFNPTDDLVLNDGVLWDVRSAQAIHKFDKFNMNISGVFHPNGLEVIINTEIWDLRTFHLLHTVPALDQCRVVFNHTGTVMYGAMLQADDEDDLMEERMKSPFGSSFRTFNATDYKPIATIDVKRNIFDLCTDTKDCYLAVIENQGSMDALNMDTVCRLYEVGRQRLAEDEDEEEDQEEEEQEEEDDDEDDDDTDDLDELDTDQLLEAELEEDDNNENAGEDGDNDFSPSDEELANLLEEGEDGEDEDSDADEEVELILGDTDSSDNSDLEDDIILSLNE
target,temperature,SYPRO Orange fluorescence
WDR5,30.2 °C,12700 a.u.
WDR5,37.6 °C,13800 a.u.
DCAF1,93.61 °C,31000 a.u.
DCAF1,32.8 °C,9770 a.u.
WDR5,78.61 °C,36200 a.u.
WDR5,34.2 °C,13200 a.u.
DCAF1,54.41 °C,20300 a.u.
WDR5,86.81 °C,53700 a.u.

# Study 2
# Target: Cyclin-dependent kinase 12, with cyclin K (CDK12, Homo sapiens, UniProt Q9NYV4)
# Chain of UniProt Q9NYV4 (whole entry, looked up): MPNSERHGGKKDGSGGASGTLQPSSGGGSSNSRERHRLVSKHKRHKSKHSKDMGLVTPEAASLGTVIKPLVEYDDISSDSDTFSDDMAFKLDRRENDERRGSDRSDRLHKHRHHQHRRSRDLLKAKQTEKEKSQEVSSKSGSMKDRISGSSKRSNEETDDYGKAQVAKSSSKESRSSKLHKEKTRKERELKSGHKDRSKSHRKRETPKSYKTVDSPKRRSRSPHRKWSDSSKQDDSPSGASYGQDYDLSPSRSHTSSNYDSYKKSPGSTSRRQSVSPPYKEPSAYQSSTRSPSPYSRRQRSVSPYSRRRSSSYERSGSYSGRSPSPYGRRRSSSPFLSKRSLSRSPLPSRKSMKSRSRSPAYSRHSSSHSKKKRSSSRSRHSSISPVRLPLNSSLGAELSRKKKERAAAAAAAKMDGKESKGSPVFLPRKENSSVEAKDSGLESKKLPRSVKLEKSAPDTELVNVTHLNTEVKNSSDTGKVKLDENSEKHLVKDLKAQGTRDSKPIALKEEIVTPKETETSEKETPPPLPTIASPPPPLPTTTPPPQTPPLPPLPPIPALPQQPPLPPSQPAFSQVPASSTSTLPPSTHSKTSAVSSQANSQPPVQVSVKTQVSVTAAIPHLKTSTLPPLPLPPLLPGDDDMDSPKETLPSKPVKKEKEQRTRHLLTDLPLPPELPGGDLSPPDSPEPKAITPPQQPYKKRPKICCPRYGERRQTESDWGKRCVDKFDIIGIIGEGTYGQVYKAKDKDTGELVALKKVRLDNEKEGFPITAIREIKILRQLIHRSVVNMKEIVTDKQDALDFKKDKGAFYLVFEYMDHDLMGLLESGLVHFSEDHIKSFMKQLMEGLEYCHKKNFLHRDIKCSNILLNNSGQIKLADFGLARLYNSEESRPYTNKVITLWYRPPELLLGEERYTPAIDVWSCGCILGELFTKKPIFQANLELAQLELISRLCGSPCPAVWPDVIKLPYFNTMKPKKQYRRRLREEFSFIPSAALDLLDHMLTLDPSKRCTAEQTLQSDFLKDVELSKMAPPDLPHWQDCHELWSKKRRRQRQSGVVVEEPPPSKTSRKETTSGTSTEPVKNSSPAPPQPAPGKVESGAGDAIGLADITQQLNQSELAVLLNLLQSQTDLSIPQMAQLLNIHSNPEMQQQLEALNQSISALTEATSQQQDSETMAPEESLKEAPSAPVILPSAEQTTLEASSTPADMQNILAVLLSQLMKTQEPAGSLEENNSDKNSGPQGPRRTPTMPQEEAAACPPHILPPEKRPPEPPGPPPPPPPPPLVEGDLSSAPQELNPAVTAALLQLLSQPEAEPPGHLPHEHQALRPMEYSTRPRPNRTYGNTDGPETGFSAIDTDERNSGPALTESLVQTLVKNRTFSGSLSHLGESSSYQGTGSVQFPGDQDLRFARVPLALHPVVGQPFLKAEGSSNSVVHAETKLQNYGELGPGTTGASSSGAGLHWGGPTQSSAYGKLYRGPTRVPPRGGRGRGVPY
# Read-out: kinase activity
# Action: inhibitor
# Method: ADP-Glo
# Tested at: 0.0741 µM
Structure (SMILES),inhibition [%]
CCn1cnc2c(NCc3nc4cc(Cl)c(Cl)cc4[nH]3)nc(N3CCN(C(=O)c4ccccn4)CC3)nc21,30.9
CCn1cnc2c(NCc3nc4cc(Cl)c(Cl)cc4[nH]3)nc(N3CCN(C(=O)CNC(C)=O)CC3)nc21,41
CCn1cnc2c(NCc3nc4cc(F)c(F)cc4[nH]3)nc(N3CCn4ncnc4C3)nc21,27.9
CCn1cnc2c(NCc3nc4cc(Cl)c(Cl)cc4[nH]3)nc(N3CCC(NC(C)=O)CC3)nc21,28
CCn1cnc2c(NCc3nc4cc(Cl)c(Cl)cc4[nH]3)nc(N3CCN(C(=O)[C@H](C)NC(C)=O)CC3)nc21,11
CCn1cnc2c(NCc3nc4cc(Cl)c(Cl)cc4[nH]3)nc(N3CCN(Cc4ccncc4)CC3)nc21,-2.3
CCCCOc1nc(NCc2nc3cc(Cl)c(Cl)cc3[nH]2)c2ncn(CC)c2n1,18.7
CCn1cnc2c(NCc3nc4ccc(F)c(F)c4[nH]3)nc(N3CCn4ncnc4C3)nc21,31.6
CC(=O)N1CCN(c2nc(NCc3nc4cc(Cl)c(Cl)cc4[nH]3)c3ncn(C(C)C)c3n2)CC1,-6.6
CCn1cnc2c(NCc3nc4cc(Cl)c(Cl)cc4[nH]3)nc(N3CCN(c4ccccn4)CC3)nc21,25.7

# Study 3
# Structure (SMILES): Cc1ccc(O)c(C)c1-c1cnc2[nH]c(-c3cnc(N4CCC(CCN5CCN(c6ccc(N7CCC(=O)NC7=O)cc6F)CC5)CC4)nc3)cc2c1C#N
# Target: Membrane-associated tyrosine- and threonine-specific cdc2-inhibitory kinase (PKMYT1, Homo sapiens, UniProt Q99640)
# Chain of UniProt Q99640 (whole entry, looked up): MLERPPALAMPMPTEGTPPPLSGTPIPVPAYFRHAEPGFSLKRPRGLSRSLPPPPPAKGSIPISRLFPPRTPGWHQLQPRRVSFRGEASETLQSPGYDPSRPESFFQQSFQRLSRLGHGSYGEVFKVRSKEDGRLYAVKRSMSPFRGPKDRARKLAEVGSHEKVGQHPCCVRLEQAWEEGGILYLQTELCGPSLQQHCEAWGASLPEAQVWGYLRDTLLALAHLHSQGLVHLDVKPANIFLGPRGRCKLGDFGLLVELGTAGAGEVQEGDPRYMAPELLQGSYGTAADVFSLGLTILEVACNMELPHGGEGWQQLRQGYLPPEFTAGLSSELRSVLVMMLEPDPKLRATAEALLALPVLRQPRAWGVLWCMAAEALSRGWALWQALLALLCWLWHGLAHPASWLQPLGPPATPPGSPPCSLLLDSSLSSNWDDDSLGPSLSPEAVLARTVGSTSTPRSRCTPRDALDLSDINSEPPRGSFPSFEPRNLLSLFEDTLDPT
# Action: degrader
# Method: automated immunoblot (Jess)
# Relative to: GAPDH
tested at,protein level [%]
0.1 nM,64
1 nM,67
10 nM,95
1000 nM,68.1
100 nM,90.2
0.01 nM,90.7

# Study 4
# SMILES: Cc1ncsc1-c1ccc(C(CO)NC(=O)C2CC(O)CN2C(=O)C(C(C)C)n2cc(-c3ccc(COc4c(-c5c(C)c(F)cc6[nH]ncc56)c(C5CC5)cc5c(N6CC7CC6CN7)nc(OC6CCOCC6)nc45)cc3)nn2)cc1 (centres unmarked)
# Read-out: cell growth or viability
# Method: ATP luminescence
# Time: 6 days
cell line,tested at,viability
T24,10 µM,72.4% and 39.3% and 55.9% and 58.2%
PaTu 8902,0.1 µM,84.6% and 90.2% and 88.6% and 94.8%
NCI-H358,100 pM,95% and 101% and 92.6% and 99.4%
HT-29,0.1 µM,86.1% and 120% and 112% and 119%
HPAC,10 µM,2.66% and 1.83% and 2.53% and 6.26%
A-375,1 nM,90.3% and 88.3% and 99.1% and 87.9%
HCT-116,0.3 µM,71.8% and 66.5% and 65.4% and 64.1%

# Study 5
# SMILES: COc1cc(-c2nc3ccc(C(=O)NCCCN4CCN(c5cccc(C)c5C)CC4)cc3n2C2CCC2)cc(OC)c1OC
# Read-out: binding
# Method: competition with immobilised ligand
# Tested at: 1 µM
target,remaining binding [%]
"PIK3CA (Homo sapiens, UniProt P42336, Q546K)",97
"Tyrosine-protein kinase ABL1, phosphorylated (ABL1, Homo sapiens, UniProt P00519, Q252H)",73
"CDK14 (Homo sapiens, UniProt O94921)",94
"FER (Homo sapiens, UniProt P16591)",96
"KIT (Homo sapiens, UniProt P10721, V559D)",98
"CRK2 (Plasmodium falciparum, UniProt P61075)",87
"MAPK4 (Homo sapiens, UniProt P31152)",100
"Cyclin-dependent kinase 4, with cyclin D3 (CDK4, Homo sapiens, UniProt P11802)",100
"CSNK2A2 (Homo sapiens, UniProt P19784)",100
"MAPK7 (Homo sapiens, UniProt Q13164)",100
"PRKX (Homo sapiens, UniProt P51817)",89
"GSK3A (Homo sapiens, UniProt P49840)",98
"NEK7 (Homo sapiens, UniProt Q8TDX7)",97
"RIPK2 (Homo sapiens, UniProt O43353)",54
"STK17A (Homo sapiens, UniProt Q9UEE5)",100
"PAK5 (Homo sapiens, UniProt Q9P286)",95
"Ribosomal protein S6 kinase alpha-3, C-terminal kinase domain (RPS6KA3, Homo sapiens, UniProt P51812)",77

# Study 6
# SMILES: CC[C@@]1(c2ccccc2)C2=C(CC(C)(C)CC2=O)Nc2n[nH]cc21
# Tested at: 1 µM
target,read-out,method,relative to,remaining binding [%]
"SBK3 (Homo sapiens, UniProt P0C264)",binding,competition with immobilised ligand,,100
"SIK3 (Homo sapiens, UniProt Q9Y2K2)",binding,competition with immobilised ligand,,94
"CSK (Homo sapiens, UniProt P41240)",binding,competition with immobilised ligand,,100
"EGFR (Homo sapiens, UniProt P00533, T790M)",kinase binding,KINOMEscan,DMSO control,100
"STK17B (Homo sapiens, UniProt O94768)",kinase binding,KINOMEscan,DMSO control,99
"LTK (Homo sapiens, UniProt P29376)",binding,competition with immobilised ligand,,100
"WEE2 (Homo sapiens, UniProt P0C1S8)",binding,competition with immobilised ligand,,100
"FLT3 ITD, human",,KINOMEscan,,100
"Ribosomal protein S6 kinase alpha-1, N-terminal kinase domain (RPS6KA1, Homo sapiens, UniProt Q15418)",kinase binding,KINOMEscan,DMSO control,96
"ERBB3 (Homo sapiens, UniProt P21860)",binding,competition with immobilised ligand,,100
"RIPK2 (Homo sapiens, UniProt O43353)",kinase binding,KINOMEscan,DMSO control,100
"ERN1 (Homo sapiens, UniProt O75460)",binding,competition with immobilised ligand,,100
"FGR (Homo sapiens, UniProt P09769)",binding,competition with immobilised ligand,,100

# Single results of other studies
SMILES,test,system,setting,how to read,measurement,result
Cc1nc(C)c(C=[N+]([O-])C(C)(C)C)nc1C,Western blot,"MPTP mouse model, substantia nigra cytosol","10 mg/kg, unit not given",relative to: β-actin,HO-1 protein level,65.7 and 57.2 and 60.3 and 78.1

# Excerpt of the above (study 5):
target,remaining binding [%]
"CRK2 (Plasmodium falciparum, UniProt P61075)",87
"PIK3CA (Homo sapiens, UniProt P42336, Q546K)",97
"PAK5 (Homo sapiens, UniProt Q9P286)",95
"RIPK2 (Homo sapiens, UniProt O43353)",54
"MAPK4 (Homo sapiens, UniProt P31152)",100
